{"data": "Published values from different studies", "target": "5-hydroxytryptamine receptor 2A (HTR2A, Homo sapiens, UniProt P28223)", "note": "Compare with care: the assays were run in different laboratories.", "sequence of UniProt P28223 (whole entry, looked up)": "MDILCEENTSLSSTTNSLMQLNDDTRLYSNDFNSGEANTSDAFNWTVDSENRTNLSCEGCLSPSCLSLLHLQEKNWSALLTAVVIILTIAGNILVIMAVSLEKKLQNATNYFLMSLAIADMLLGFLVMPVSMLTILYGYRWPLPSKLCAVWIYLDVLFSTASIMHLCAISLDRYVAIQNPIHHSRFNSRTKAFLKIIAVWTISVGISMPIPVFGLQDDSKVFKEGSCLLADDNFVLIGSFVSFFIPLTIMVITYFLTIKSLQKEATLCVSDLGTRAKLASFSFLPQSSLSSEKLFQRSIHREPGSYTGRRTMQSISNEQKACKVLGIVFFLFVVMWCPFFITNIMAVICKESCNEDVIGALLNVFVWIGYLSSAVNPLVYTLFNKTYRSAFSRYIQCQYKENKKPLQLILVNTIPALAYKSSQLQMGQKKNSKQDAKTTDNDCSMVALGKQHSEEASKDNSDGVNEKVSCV"}
{"SMILES": "C/C=C1/CN2CCc3c([nH]c4ccccc34)[C@@H]2C[C@@H]1/C(=C\\OC)C(=O)OC", "read-out": "ligand displacement", "method": "radioligand", "setting": "cell membranes", "quantity": "IC50", "result": "197 nM"}
{"SMILES": "COc1c(OCCOCCOCCOc2cccc(C(=O)C3CCN(CCc4ccc(F)cc4)CC3)c2OC)cccc1C(=O)C1CCN(CCc2ccc(F)cc2)CC1", "read-out": "phosphorylation in cells", "action": "antagonist", "quantity": "IC50", "result": "25.6 nM"}
{"SMILES": "NCC1CC1c1cc(O)ccc1OCC1CC1 (single isomer, unassigned; (+))", "read-out": "calcium signal", "action": "agonist", "quantity": "EC50", "result": "372 nM"}
{"SMILES": "Cc1cc(C2=CCN(CC3OCCO3)CC2)cc([N+](=O)[O-])c1N", "read-out": "β-arrestin recruitment", "action": "agonist", "quantity": "EC50", "result": "4900 nM"}
{"SMILES": "CN(C)CCc1c[nH]c2ccccc12", "read-out": "ligand displacement in cells", "method": "radioligand", "quantity": "Ki", "result": "88.5 nM"}
{"SMILES": "COc1c(OCCOCCOc2cccc(C(=O)C3CCN(CCc4ccc(F)cc4)CC3)c2OC)cccc1C(=O)C1CCN(CCc2ccc(F)cc2)CC1", "read-out": "ligand displacement", "method": "radioligand", "quantity": "Ki", "result": "3.1 nM"}
{"SMILES": "CCCCN(CCCC)CCc1c[nH]c2ccccc12", "read-out": "ligand displacement in cells", "method": "radioligand", "quantity": "Ki", "result": "823 nM"}
{"SMILES": "COc1c(O)cccc1C(=O)C1CCN(CCc2ccc(F)cc2)CC1", "read-out": "phosphorylation in cells", "action": "antagonist", "quantity": "IC50", "result": "10.1 nM"}
{"SMILES": "COc1cc(CCNCc2ccccc2F)c(OC)cc1I", "read-out": "ligand displacement in cells", "method": "radioligand", "quantity": "Ki", "result": "10 nM"}
{"SMILES": "CN(C)[C@H](CNC(=O)/C=C/c1cccc2ccccc12)Cc1ccc(O)cc1", "read-out": "cell-free assay", "quantity": "Ki", "result": "190 nM"}
